# Assay results from different studies.
# Compare with care: the assays were run in different laboratories. Values joined by “and” are separate records of one study, mostly repeats; a detail may differ. ± marks the error that the study gave.
# Cell line: RAW264.7
Compound,test,setting,scale,measurement,value
O=C(COC(=O)c1ccccc1Nc1cccc(C(F)(F)F)c1)NNS(=O)(=O)c1ccccc1,ELISA,"concentration not given, 24 h, together with: LPS 100 ng/mL",,PGE2 level,88.3 pg/mL and 61.6 pg/mL
CC(C)c1c(C(=O)Nc2ccccc2)c(-c2ccccc2)c(-c2ccc(F)cc2)n1CC[C@@H](O)C[C@@H](O)CC(=O)O,"lipid droplet accumulation, Oil Red O staining","24 h, 48 h oxLDL pre-exposure, together with: oxidized LDL",,foam cell formation,decreased
CC(=O)O[C@@H]1CC[C@@]2(C)[C@@H](CC[C@]3(C)[C@@H]2C(=O)C=C2[C@@H]4[C@@H](C)[C@H](C)CC[C@]4(C)CC[C@]23C)[C@@]1(C)C(=O)O,"ELISA, refers to: TNF-α, IL-6, IFN-γ","concentration not given, together with: LPS",reference: LPS alone,cytokine production,decreased
C=C1C[C@](OC)([C@H](OCOC/C=C/B2OC(CC)(CC)C(CC)(CC)O2)C(=O)NC[C@@H]2C[C@@H](OC)C(C)(C)[C@@H](C[C@@H](COC)OC)O2)O[C@H](C)[C@@H]1C,"cell viability, sulforhodamine B","48 h, 37 °C, without H2O2",,IC50,0.119 ± 0.037 µM
N=C(N)Nc1ccc(NC(=O)c2ccc(C(F)(F)F)cc2C(F)(F)F)cc1OCc1ccc(C(F)(F)F)cc1,"cell growth, MTT",48 h,,IC50,> 500 µM
O=c1cc(-c2ccccc2)oc2cc(O)c(O)c(O)c12,"lipid droplet accumulation, Oil Red O staining","24 h, 48 h oxLDL pre-exposure, together with: oxidized LDL",,foam cell formation,decreased
N=C(N)Nc1ccc(NC(=O)c2ccc(Cl)c(Cl)c2)cc1OCc1ccc(C(F)(F)F)cc1,"cell growth, MTT",48 h,,IC50,> 500 µM
Cc1sc2c(c1C)C(c1ccc(Cl)cc1)=N[C@@H](CC(=O)NCCCCCCCCNC(=O)COc1cccc3c1C(=O)N(C1CCC(=O)NC1=O)C3=O)c1nnc(C)n1-2 (stereo partly shown),"macrophage polarization, flow cytometry","0.25 µg/mL, 24 h, together with: IL-4 20 ng/mL pretreatment",,CD206+ cells,0.19% and 0.22% and 0.17%
CN(c1ccc(NC(=O)c2cccc(C(=N)N)c2)cc1OCc1ccc(C(F)(F)F)cc1)S(=O)(=O)Cc1ccccc1,"cell growth, MTT",48 h,,IC50,> 500 µM
Cc1ccc(S(=O)(=O)NNC(=O)COC(=O)c2ccccc2Nc2cccc(C(F)(F)F)c2)cc1,ELISA,"concentration not given, 24 h, together with: LPS 100 ng/mL",,PGE2 level,88.2 pg/mL and 61.6 pg/mL

# Excerpt of the above:
Compound,test,setting,scale,measurement,value
O=C(COC(=O)c1ccccc1Nc1cccc(C(F)(F)F)c1)NNS(=O)(=O)c1ccccc1,ELISA,"concentration not given, 24 h, together with: LPS 100 ng/mL",,PGE2 level,88.3 pg/mL and 61.6 pg/mL
